Measurements pooled from the literature.
Parts stem from different laboratories: compare values within a part only.
Chain of UniProt O95747 (whole entry, looked up): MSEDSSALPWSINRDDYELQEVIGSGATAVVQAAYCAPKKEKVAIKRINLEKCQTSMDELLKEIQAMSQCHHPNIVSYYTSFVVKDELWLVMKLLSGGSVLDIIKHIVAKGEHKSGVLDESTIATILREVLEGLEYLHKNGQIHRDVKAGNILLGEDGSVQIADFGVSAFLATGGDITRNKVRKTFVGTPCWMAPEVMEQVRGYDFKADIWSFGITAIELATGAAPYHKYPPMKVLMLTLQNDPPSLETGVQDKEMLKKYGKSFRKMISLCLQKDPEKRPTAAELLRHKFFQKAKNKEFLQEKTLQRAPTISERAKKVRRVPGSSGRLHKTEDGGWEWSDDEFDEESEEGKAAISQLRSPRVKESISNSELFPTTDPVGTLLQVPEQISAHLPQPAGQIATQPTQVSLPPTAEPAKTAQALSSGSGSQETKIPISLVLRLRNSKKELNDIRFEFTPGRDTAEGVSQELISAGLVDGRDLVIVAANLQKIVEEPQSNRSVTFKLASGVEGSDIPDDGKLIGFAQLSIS
Chain of UniProt Q9Y2U5 (whole entry, looked up): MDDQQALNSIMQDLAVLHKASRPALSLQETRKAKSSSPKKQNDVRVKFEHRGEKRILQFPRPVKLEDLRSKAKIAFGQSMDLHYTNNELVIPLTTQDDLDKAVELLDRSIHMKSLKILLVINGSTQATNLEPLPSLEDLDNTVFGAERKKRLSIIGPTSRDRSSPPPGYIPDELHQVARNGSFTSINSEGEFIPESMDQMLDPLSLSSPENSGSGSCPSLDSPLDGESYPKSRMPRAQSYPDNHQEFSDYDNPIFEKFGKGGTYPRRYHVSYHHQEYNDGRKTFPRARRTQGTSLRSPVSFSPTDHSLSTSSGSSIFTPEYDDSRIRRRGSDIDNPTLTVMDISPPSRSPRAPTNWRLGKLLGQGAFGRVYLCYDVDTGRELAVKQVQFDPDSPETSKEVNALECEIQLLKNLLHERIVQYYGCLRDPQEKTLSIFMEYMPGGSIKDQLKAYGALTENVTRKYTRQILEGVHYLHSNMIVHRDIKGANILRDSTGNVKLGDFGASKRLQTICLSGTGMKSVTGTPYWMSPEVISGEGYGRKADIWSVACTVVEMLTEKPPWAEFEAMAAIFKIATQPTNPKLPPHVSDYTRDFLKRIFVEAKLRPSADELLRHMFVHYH
Chain of UniProt Q16816 (whole entry, looked up): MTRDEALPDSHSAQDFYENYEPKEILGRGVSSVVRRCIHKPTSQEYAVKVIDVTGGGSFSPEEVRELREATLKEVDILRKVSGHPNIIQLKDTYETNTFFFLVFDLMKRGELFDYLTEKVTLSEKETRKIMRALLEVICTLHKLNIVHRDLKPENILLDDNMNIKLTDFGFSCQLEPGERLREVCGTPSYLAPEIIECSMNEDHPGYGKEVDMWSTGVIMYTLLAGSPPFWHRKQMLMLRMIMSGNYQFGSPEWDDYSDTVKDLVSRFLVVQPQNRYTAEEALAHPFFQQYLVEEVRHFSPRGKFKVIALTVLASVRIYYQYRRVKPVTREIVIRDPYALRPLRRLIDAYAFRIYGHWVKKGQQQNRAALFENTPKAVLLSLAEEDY
Chain of UniProt P42336 (whole entry, unmodified, looked up): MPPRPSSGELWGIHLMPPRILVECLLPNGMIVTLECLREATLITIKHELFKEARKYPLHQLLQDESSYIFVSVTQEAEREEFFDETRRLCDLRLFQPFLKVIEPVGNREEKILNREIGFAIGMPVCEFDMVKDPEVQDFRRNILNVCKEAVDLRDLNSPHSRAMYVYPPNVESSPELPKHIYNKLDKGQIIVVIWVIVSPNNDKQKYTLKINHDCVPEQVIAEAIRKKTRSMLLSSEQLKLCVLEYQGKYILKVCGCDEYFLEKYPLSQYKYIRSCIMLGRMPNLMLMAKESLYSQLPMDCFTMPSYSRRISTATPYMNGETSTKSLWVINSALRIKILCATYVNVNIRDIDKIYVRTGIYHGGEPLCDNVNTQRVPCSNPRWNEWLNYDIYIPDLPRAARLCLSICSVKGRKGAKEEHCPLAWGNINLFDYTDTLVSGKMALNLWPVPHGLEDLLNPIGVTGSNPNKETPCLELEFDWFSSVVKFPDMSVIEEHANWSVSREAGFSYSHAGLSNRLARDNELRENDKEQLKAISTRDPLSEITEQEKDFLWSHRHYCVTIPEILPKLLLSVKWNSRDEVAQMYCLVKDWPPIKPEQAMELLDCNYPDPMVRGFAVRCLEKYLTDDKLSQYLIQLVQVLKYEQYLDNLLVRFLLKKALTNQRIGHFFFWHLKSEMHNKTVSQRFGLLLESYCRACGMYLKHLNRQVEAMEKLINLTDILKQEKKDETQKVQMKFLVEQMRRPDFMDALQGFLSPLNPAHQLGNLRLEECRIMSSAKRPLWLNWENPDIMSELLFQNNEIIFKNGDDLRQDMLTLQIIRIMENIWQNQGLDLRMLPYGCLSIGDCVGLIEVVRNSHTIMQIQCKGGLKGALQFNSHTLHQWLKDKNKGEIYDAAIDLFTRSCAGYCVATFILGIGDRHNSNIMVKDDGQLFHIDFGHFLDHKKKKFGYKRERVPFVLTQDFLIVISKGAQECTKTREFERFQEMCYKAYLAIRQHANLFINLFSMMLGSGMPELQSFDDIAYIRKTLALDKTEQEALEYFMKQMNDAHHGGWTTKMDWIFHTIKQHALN
Chain of UniProt P04629 (whole entry, looked up): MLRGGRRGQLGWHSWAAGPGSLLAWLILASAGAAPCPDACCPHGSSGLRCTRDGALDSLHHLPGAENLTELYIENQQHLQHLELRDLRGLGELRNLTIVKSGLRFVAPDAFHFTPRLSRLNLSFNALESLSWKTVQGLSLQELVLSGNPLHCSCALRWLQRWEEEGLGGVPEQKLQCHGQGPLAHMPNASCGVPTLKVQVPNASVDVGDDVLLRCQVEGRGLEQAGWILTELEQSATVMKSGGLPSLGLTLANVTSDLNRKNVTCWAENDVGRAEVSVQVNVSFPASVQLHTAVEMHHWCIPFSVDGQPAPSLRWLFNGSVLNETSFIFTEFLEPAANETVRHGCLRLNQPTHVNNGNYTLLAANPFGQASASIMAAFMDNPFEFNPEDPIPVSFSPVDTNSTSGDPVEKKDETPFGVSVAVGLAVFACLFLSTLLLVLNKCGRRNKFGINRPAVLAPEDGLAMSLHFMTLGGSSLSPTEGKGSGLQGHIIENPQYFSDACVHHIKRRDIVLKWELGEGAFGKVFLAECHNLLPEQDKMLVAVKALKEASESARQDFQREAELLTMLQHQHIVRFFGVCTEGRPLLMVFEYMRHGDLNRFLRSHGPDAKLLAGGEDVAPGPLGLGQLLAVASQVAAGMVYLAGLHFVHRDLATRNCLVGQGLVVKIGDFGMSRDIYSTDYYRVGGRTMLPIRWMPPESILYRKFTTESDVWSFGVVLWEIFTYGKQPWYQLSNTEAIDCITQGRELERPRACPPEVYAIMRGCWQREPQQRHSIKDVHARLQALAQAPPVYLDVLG
Chain of UniProt P37173 (whole entry, looked up): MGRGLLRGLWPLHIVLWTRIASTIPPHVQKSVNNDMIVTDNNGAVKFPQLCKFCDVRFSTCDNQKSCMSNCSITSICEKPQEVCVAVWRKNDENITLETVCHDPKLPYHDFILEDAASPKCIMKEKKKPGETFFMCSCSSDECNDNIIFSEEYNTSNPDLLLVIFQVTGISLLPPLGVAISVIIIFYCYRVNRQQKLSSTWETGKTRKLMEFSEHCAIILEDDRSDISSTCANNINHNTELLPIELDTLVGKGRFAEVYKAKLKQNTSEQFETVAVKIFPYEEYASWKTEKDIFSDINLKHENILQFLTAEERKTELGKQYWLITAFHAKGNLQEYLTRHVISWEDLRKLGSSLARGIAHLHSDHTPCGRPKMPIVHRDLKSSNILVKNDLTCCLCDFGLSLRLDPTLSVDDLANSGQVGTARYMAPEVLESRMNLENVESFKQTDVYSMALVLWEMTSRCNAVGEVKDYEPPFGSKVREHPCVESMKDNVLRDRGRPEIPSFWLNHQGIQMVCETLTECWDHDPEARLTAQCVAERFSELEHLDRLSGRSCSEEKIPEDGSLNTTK
Chain of UniProt Q14164 (whole entry, looked up): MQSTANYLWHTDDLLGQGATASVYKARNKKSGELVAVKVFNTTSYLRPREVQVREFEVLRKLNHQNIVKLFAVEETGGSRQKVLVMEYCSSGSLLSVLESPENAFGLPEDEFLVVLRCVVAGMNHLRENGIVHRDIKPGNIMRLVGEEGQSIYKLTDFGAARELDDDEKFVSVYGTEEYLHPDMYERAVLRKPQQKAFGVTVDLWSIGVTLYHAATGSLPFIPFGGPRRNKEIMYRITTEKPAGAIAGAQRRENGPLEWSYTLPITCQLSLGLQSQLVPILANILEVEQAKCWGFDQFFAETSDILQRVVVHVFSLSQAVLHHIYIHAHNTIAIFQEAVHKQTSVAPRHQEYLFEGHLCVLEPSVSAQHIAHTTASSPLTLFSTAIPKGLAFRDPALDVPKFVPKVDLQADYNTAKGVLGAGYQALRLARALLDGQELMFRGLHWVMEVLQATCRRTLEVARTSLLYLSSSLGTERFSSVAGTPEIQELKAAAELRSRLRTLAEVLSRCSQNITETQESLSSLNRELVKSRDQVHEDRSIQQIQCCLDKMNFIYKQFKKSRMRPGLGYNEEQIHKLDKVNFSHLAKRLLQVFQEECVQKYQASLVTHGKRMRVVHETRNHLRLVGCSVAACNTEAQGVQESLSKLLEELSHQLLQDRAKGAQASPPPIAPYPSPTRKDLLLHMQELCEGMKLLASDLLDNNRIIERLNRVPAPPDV

Set 1
Compound: CC(C)c1nn(-c2c(Cl)cccc2Cl)c2nc(Cc3ccc(OCCO)cc3)[nH]c(=O)c12
Effect on: enzyme activity
Mode: inhibitor
Concentration: 0.5 µM
Baseline: control
target	remaining activity [%]
Tyrosine-protein kinase Lyn, isoform B (LYN, Homo sapiens, UniProt P07948)	92.7
STK39 (Homo sapiens, UniProt Q9UEW8)	99.9
CHEK2 (Homo sapiens, UniProt O96017)	98.8
TGFBR2 (Homo sapiens, UniProt P37173)	74.3
OXSR1 (Homo sapiens, UniProt O95747)	93.8
PRKCA (Homo sapiens, UniProt P17252)	89.9
DAPK1 (Homo sapiens, UniProt P53355)	99.5
PRKACA (Homo sapiens, UniProt P17612)	99.8
IKBKE (Homo sapiens, UniProt Q14164)	95.6
Protein kinase C beta type, isoform beta-I (PRKCB, Homo sapiens, UniProt P05771)	101

Set 2
SMILES: C[C@@]1(Cc2ccc(C#N)cc2)C(=O)N(c2cc(Cl)cc(Cl)c2)c2ncc(C(=O)NC3(c4nc(C5CCC5)no4)CC3)n21
Effect on: cell-free assay
Technique: competition with immobilised ligand
Concentration: 1 µM
target	remaining binding [%]
STK25 (Homo sapiens, UniProt O00506)	100
PHKG1 (Homo sapiens, UniProt Q16816)	100
ROS1 (Homo sapiens, UniProt P08922)	100
EPHA6 (Homo sapiens, UniProt Q9UF33)	88
STK26 (Homo sapiens, UniProt Q9P289)	100
STK33 (Homo sapiens, UniProt Q9BYT3)	100
TIE1 (Homo sapiens, UniProt P35590)	100
PIM3 (Homo sapiens, UniProt Q86V86)	100
CDK3 (Homo sapiens, UniProt Q00526)	100
TBK1 (Homo sapiens, UniProt Q9UHD2)	95
NTRK1 (Homo sapiens, UniProt P04629)	100
PIM2 (Homo sapiens, UniProt Q9P1W9)	98
PIK3CA (Homo sapiens, UniProt P42336, C420R)	89
MAP3K2 (Homo sapiens, UniProt Q9Y2U5)	100
NEK9 (Homo sapiens, UniProt Q8TD19)	86
MAP3K13 (Homo sapiens, UniProt O43283)	100
CAMKK1 (Homo sapiens, UniProt Q8N5S9)	100
OXSR1 (Homo sapiens, UniProt O95747)	84
RPS6KB1 (Homo sapiens, UniProt P23443)	100
TAOK2 (Homo sapiens, UniProt Q9UL54)	100
AXL (Homo sapiens, UniProt P30530)	100

Set 3
Structure (SMILES): CC(C)n1cnc(-c2ccc(F)cc2)c1-c1ncc(C(=O)Nc2ccc(N3CCN(C)CC3)cc2)[nH]1
test	system	conditions	patients with TEAE
item: free thyroxine decreased	idiopathic pulmonary fibrosis patients	30 mg once daily	0%
phase 2a trial	idiopathic pulmonary fibrosis patients	oral, 30 mg once daily, CK-MB increased, grade 2	0%
item: hypothyroidism grade 5	idiopathic pulmonary fibrosis patients	60 mg once daily	0%
phase 2a trial	patients with idiopathic pulmonary fibrosis	30 mg once daily, eye swelling, grade 2	0%
phase 2a trial	patients with idiopathic pulmonary fibrosis	dose not given, endocrine disorders SOC, grade 3, all arms	0%
phase 2a trial	patients with idiopathic pulmonary fibrosis	60 mg once daily, atopic dermatitis, grade 2	0%
item: glutamate dehydrogenase increased	idiopathic pulmonary fibrosis patients	60 mg once daily	0%
phase 2a trial	idiopathic pulmonary fibrosis patients	oral, dose not given, LDL increased, grade 1, all arms	1%

Set 4
Cell line: A-375
Concentration: 100 µM
Time: 18 h
SMILES	viability
O[C@H](CNC[C@@H](O)[C@H]1CCc2cc(F)ccc2O1)[C@@H]1CCc2cc(F)ccc2O1	8.64%
CN1CCC(=C2c3ccccc3CCn3c(C=O)cnc32)CC1	94.3%
Nc1ccc(S(=O)(=O)Nc2ccccn2)cc1	93.5%
N#C/C(=C1/SC[C@@H](c2ccc(Cl)cc2Cl)S1)n1ccnc1	20.9%
N[C@H]1C(O)O[C@H](CO)[C@@H](O)[C@@H]1O (some centres unmarked)	95.4%
O=C(OC1C[C@@H]2CC3C[C@H](C1)N2CC3=O)c1c[nH]c2ccccc12 (some centres unmarked)	91%
O=C(c1cc(Cc2n[nH]c(=O)c3ccccc23)ccc1F)N1CCN(C(=O)C2CC2)CC1	84.8%
CCCCS(=O)(=O)N[C@@H](Cc1ccc(OCCCCC2CCNCC2)cc1)C(=O)O	101%

For quick reference, copied from above (set 2):
target	remaining binding [%]
MAP3K2 (Homo sapiens, UniProt Q9Y2U5)	100
ROS1 (Homo sapiens, UniProt P08922)	100
PIK3CA (Homo sapiens, UniProt P42336, C420R)	89
PIM3 (Homo sapiens, UniProt Q86V86)	100
NTRK1 (Homo sapiens, UniProt P04629)	100
TIE1 (Homo sapiens, UniProt P35590)	100
RPS6KB1 (Homo sapiens, UniProt P23443)	100
